# Results collected from several papers.
# Every numbered part comes from another study and shows a few of its results, in no order.
# Chain of UniProt Q13153 (whole entry, looked up): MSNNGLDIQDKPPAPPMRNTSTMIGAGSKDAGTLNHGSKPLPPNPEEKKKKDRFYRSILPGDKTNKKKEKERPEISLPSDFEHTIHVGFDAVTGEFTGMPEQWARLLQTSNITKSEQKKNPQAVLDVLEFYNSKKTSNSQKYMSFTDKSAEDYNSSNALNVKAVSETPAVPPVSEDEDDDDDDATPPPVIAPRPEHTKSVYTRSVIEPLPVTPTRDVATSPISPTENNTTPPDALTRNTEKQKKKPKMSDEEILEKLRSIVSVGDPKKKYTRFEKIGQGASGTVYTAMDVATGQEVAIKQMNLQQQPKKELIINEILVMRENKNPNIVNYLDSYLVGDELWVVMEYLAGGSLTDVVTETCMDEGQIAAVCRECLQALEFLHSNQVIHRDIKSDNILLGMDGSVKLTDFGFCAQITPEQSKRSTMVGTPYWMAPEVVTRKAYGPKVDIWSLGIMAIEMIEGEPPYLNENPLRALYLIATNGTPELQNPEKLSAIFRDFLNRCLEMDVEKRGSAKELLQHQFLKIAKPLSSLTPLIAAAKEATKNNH
# Chain of UniProt Q9H0K1 (whole entry, looked up): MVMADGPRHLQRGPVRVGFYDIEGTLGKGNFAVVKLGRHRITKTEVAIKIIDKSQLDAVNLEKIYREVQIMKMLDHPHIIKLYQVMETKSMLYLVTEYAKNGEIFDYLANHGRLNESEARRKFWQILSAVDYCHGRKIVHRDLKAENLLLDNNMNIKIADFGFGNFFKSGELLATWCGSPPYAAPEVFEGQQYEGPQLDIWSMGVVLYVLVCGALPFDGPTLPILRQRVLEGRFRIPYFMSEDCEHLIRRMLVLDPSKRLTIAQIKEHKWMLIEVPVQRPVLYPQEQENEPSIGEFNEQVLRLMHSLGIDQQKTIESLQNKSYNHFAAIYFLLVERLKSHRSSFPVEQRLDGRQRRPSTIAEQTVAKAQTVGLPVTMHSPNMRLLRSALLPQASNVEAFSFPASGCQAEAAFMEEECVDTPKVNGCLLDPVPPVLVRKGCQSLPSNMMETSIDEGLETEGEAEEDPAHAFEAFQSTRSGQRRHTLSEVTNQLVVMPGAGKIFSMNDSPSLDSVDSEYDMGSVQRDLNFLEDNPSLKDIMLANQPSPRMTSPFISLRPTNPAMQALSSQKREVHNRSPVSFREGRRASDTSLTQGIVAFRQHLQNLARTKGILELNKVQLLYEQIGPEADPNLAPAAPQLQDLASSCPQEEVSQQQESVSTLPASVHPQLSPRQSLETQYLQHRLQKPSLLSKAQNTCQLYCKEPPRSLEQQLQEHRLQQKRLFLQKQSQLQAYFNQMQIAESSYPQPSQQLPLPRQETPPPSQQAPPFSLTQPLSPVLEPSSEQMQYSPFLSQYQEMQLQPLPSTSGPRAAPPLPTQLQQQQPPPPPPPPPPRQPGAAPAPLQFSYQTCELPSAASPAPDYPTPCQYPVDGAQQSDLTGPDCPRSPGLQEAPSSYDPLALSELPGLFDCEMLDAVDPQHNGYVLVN
# Chain of UniProt P04629 (whole entry, looked up): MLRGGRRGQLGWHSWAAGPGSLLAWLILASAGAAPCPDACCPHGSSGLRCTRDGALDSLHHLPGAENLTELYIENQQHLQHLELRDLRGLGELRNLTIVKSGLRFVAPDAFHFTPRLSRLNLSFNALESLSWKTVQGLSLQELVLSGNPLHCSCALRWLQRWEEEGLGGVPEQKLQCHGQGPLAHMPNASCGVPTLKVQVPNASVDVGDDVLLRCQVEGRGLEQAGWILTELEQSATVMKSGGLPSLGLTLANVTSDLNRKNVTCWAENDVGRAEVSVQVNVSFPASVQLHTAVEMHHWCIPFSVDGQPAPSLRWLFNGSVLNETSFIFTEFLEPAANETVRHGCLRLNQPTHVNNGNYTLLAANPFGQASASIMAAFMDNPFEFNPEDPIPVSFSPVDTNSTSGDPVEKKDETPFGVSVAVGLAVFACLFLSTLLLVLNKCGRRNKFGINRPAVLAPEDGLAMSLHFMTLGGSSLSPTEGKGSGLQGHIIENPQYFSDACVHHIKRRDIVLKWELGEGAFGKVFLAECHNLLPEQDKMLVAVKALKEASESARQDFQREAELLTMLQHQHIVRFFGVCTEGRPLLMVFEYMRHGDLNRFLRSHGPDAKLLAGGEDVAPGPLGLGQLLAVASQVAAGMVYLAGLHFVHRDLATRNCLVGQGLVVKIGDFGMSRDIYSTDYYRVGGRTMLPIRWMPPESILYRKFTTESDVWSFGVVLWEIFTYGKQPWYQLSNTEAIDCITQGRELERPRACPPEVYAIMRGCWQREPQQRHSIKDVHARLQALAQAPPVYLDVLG
# Chain of UniProt P29317 (whole entry, looked up): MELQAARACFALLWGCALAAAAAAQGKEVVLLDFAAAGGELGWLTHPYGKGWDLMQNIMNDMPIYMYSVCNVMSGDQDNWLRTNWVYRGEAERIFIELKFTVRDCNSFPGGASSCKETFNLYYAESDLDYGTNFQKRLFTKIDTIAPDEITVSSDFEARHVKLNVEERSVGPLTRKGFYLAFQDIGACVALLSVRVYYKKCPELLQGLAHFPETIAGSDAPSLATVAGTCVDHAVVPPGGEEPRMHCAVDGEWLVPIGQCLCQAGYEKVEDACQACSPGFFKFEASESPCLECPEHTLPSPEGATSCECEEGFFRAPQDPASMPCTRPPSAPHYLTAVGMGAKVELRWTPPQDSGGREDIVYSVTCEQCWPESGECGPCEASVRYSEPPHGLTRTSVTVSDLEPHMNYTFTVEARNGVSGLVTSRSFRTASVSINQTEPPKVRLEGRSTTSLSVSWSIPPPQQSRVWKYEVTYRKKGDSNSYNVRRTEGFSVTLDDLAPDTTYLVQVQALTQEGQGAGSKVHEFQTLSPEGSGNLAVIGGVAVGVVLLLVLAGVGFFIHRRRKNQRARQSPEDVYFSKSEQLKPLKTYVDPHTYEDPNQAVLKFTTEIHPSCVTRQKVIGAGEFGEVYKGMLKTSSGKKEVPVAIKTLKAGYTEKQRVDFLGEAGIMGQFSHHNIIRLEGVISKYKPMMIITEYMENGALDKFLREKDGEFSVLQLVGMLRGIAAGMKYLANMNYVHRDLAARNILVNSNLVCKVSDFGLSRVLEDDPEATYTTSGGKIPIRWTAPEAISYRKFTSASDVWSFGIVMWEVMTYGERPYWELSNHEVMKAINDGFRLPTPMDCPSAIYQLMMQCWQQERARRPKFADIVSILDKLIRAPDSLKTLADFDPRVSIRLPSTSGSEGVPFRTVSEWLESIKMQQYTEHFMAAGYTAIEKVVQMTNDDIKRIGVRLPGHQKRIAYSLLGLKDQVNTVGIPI
# Chain of UniProt Q8NEV4 (whole entry, looked up): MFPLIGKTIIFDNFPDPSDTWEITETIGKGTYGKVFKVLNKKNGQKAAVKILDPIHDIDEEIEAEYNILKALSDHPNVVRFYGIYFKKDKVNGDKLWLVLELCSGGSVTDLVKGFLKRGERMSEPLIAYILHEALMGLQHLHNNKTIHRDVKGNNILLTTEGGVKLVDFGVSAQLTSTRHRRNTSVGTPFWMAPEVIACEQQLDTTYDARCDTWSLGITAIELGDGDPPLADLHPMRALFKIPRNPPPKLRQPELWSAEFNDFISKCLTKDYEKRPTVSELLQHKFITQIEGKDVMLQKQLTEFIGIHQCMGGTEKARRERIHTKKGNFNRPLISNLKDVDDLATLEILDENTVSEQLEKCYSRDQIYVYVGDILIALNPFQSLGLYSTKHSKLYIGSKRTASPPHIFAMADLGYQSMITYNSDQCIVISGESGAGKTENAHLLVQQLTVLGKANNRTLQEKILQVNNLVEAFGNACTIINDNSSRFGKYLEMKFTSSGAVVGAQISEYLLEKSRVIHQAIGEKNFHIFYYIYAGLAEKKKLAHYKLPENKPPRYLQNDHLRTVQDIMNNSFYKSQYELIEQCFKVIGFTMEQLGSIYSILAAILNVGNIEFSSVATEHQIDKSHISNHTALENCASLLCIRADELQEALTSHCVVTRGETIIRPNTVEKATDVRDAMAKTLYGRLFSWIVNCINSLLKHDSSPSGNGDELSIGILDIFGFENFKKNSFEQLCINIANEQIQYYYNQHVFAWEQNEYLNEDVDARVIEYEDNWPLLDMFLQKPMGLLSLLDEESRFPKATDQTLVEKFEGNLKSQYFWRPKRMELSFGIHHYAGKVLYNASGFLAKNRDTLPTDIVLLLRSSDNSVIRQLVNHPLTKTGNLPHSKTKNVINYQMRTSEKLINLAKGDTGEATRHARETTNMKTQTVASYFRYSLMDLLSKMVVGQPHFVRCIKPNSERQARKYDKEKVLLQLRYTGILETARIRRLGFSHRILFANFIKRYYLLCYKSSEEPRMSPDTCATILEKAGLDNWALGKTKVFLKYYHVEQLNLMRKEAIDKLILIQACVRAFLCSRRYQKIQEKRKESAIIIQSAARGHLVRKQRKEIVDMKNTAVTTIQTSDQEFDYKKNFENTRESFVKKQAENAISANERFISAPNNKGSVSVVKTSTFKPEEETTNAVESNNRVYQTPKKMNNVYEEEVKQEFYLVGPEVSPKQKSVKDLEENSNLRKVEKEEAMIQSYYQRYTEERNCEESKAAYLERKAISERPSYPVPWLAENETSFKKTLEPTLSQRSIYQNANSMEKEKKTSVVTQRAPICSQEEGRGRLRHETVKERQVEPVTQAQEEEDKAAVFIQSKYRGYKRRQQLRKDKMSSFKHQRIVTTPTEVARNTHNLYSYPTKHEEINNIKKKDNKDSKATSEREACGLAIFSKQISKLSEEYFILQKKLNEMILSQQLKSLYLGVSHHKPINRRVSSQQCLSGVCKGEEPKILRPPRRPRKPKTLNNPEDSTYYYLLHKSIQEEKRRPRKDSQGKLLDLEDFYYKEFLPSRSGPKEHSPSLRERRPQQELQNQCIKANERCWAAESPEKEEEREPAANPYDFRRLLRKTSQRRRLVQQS

# Study 1
# Target: Hepatocyte nuclear factor 3-alpha (Foxa1, Mus musculus, UniProt P35582, residues 1-468, full length assumed)
# Technique: EMSA with sequencing
# Form: double-stranded DNA, one strand shown
# Matrix: in vitro
# Tested at: 10 and 20 nM
# Notes: whole designed probe, mean of two concentrations, ends assumed
# Relative to: negative control set to 0
# Reading: higher = stronger binding
# Construct (chain): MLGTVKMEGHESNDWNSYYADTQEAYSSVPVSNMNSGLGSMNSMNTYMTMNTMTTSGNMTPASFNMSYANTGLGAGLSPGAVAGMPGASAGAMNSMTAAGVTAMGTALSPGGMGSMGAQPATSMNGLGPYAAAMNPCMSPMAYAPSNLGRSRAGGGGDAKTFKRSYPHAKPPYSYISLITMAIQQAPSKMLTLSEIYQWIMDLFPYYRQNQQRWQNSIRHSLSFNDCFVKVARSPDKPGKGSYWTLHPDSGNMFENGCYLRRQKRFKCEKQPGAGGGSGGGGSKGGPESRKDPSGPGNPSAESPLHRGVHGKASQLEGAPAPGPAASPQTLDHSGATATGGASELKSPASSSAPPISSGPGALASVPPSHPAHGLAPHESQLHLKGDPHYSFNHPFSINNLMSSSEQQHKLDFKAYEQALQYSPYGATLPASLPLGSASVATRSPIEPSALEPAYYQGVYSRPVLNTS
Strand,normalised bound fraction
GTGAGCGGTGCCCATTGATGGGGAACGAACAAAATACTTTTTGGCCTGCTTAATGTGGGAGAACATATAGACTTTTCTAGTTTCAGAGGTACTGGGAGACACTCCACATCACCTCAGTGTAAACAAGTGGTTCAGATCTCTGCTGTGAATATAGGCAGCTTTGGCTAAAATCCTGTTTTGTTTTGTTTTCTTTTTTGTTTTACAATAACTTAGTAACTTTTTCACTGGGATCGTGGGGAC,0.279 ratio
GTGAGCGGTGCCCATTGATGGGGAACCTCATTCCTTGCTTCCGCCAATAATCTGACTAGTAAAGAAGTCACTGCATGCCACAAATTGTGAGTGACTCAGTCCTCAACAAGGAAGTTATTTATTTACTTATTTAATATATGAGTGTCACAGATGCAAATTCCATCTTGAGAATACCAACTCCTGATGCCAACTGATTGTCAGTCATGGCTACAACAGGAGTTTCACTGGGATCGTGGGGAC,0.419 ratio
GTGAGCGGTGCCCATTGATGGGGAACATCTTCCCCCTCTTCCTTGCCCCACCAGCTCACCTTCCCGGGTTATTTGCAGATAGGAAAATAAATAAAGCCGGCATTCGTTAACCCTCTTCTGGCGCAAACTGCTGTTTGCTCTGCATGAATCATGGTCCTTACGCGAGGCGTGGCTCCGGGAGAGCAAAGCACCGTGTCAGGCGCATGATCCGGGGTGGCCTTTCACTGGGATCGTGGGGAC,0.348 ratio
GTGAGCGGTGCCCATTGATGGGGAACCTCCTGACCTGGGACCCCACAGAGCTGGGCCTGTCATCACATTTATGGGGCTGCAGCTGACCTGGGAACTCCCTTCCTCAGTCAGTCCACAAAAAATTACCCAGAGCCTCAGGGTGCTCAGTGACCTTTACAAAACAAAGTGCAGAGTCACGTGCCAGGGCACAGCAATCCCGGGCAAAACAGACCGAAACCCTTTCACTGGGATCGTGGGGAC,-0.0501 ratio
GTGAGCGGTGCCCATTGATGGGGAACCATTAGTTCATGCCAGGCAGGGTTTGACCAAAACCTTGGACTCACTCCTGTCTGCTTTCCTTCAGTGACTAAGAGGATTCCTGAGATGGATGTGCAATCTTGAAGAGATTACTTTCCTCCATGGGAATGTACTTCTGGCTTCCACTCCTCAGCTGCTGCTGCTAAGCCAGTGAGATAGATGGTGGTTTGGAAATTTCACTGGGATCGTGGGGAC,-0.0828 ratio
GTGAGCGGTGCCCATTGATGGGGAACTCCCCATGGCTGATATGTTATTTTCCTCATCTACAGAGATTTCTGTCCACCAAGAACTCCATCATAGTGTTTTTACATTCTCCATTTTTATGCAGATTACAGAAACAGAAACTGTCCTTTTCAGATGGGGTCTCAAGCGCAGCCCAACATACCACAGGAAGAAATTGCCCCATCTTCCCTGGAGAAAATGCCATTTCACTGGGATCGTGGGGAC,0.000596 ratio
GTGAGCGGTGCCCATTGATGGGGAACATCTTCCCCCTCTTCCTTGCCCCACCAGCTCACCTACGGGGGTTATTTGCAGATAGGAAAATAAATAAAGCCGGCATTCGTTAACCCTCTTCTGGCGCAAACTGCTGTTTGCTCTGCATGAATCATGGTCCTTACGCGACGCCAGGCTCCGGGAGAGCAAAGCACCGTGTCAGGCGCATGATCCGGGGTGGCCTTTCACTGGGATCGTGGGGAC,0.348 ratio
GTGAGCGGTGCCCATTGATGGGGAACTCCATGTAATGAAAGGTGATGAATTTAGCTTGCTTTCTCTGCTTCCTTCTTTCAGTCCCTGCCAGTCACATATTTATTTACTTCTTCTTCTATTATTTACTTTTAGAAATTTAAATAATATATTTCAACATCTATTTCCTGACTTCTTGTTGGATCATTGCCTGTACAAAAATGATTTTGTTTTATTCTCATATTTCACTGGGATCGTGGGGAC,0.449 ratio

# Study 2
# SMILES: CC(C)[C@H](CO)Nc1nc(Nc2cccc(Cl)c2)c2ncn(C(C)C)c2n1
# Observed: enzyme activity
# Action: inhibitor
# Tested at: 0.5 µM
# Relative to: control
target,remaining activity [%]
"Ribosomal protein S6 kinase alpha-3 (RPS6KA3, Homo sapiens, UniProt P51812)",86.3
"Serine/threonine-protein kinase PAK 1 (PAK1, Homo sapiens, UniProt Q13153)",92.8
"Tyrosine-protein kinase JAK1 (JAK1, Homo sapiens, UniProt P23458)",108
"Muscle, skeletal receptor tyrosine-protein kinase (MUSK, Homo sapiens, UniProt O15146)",56.8
"Maternal embryonic leucine zipper kinase (MELK, Homo sapiens, UniProt Q14680)",69.5
"Vascular endothelial growth factor receptor 1 (FLT1, Homo sapiens, UniProt P17948)",102
"Protein kinase C theta type (PRKCQ, Homo sapiens, UniProt Q04759)",127
"Cyclin-dependent kinase 5, with p35 (CDK5, Homo sapiens, UniProt Q00535)",2.61
"Serine/threonine-protein kinase pim-1 (PIM1, Homo sapiens, UniProt P11309)",104
"Ephrin type-A receptor 2 (EPHA2, Homo sapiens, UniProt P29317)",89.5
"Ribosomal protein S6 kinase beta-2 (RPS6KB2, Homo sapiens, UniProt Q9UBS0)",101
"Serine/threonine-protein kinase SIK2 (SIK2, Homo sapiens, UniProt Q9H0K1)",92.2
"Tyrosine-protein kinase JAK2 (JAK2, Homo sapiens, UniProt O60674)",97.7
"Receptor tyrosine-protein kinase erbB-2 (ERBB2, Homo sapiens, UniProt P04626)",97.1
"Serine/threonine-protein kinase PAK 6 (PAK6, Homo sapiens, UniProt Q9NQU5)",111

# Study 3
# SMILES: CC(C)CC(=O)N1CCc2nc(-c3ccc(Br)cc3)nc(N(C)Cc3ccccc3)c2C1
# Tested at: 0.1 µM
target,test,remaining binding [%]
"Myosin-IIIa (MYO3A, Homo sapiens, UniProt Q8NEV4)","binding, competition with immobilised ligand",96
"Serine/threonine-protein kinase PAK 1 (PAK1, Homo sapiens, UniProt Q13153)","cell-free assay, competition with immobilised ligand",100
"Serine/threonine-protein kinase SBK1 (SBK1, Homo sapiens, UniProt Q52WX2)","cell-free assay, competition with immobilised ligand",100
"Serine/threonine-protein kinase MRCK gamma (CDC42BPG, Homo sapiens, UniProt Q6DT37)",competition binding,100
"High affinity nerve growth factor receptor (NTRK1, Homo sapiens, UniProt P04629)","cell-free assay, competition with immobilised ligand",100

# Study 4
# Target: Histone acetyltransferase KAT6A, both winged helices, GST fusion (KAT6A, Homo sapiens, UniProt Q92794, residues 1-181)
# Technique: protein binding microarray
# Form: double-stranded DNA, one strand shown
# Matrix: in vitro
# Tested at: not given
# Notes: 8-mer, flanks averaged, mean of 2 arrays, mostly near background
# Relative to: not given
# Reading: higher = stronger binding
# Target sequence (chain): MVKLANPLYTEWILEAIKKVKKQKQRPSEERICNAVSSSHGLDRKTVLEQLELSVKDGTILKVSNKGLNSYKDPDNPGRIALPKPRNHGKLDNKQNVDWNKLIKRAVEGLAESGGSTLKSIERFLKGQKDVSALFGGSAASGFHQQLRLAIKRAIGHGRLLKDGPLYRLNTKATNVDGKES
Strand,E-score
GTAAAAAC,-0.125
CAAGTAAG,-0.165
AGCGTTCC,0.0533
CCTCTTAC,-0.172
ATTAACGC,0.211
ATTCGCAG,-0.0358
CTTAAGTA,-0.0982
GTTCCCCA,-0.0579

# Further values, each from its own experiment
Structure (SMILES),test system,quantity,result
CCOC(=O)[C@@H]1CSCC(=O)N[C@@H](CC)C(=O)N(C)[C@@H](C)C(=O)N[C@H](CC(C)C)C(=O)N2CCC[C@H]2C(=O)N(CC(C)C)CC(=O)N[C@@H](CC(C)C)C(=O)N(C)[C@@H](C)C(=O)N[C@@H](CC(C)C)C(=O)N1C,hydrocarbon/water,logD,0.612

# Excerpt of the above (study 4):
Strand,E-score
ATTCGCAG,-0.0358
GTAAAAAC,-0.125
CAAGTAAG,-0.165
ATTAACGC,0.211
CTTAAGTA,-0.0982
